{"data": "Experimental data from different studies", "OPG122": "mRNA-decapping protein OPG122 (OPG122, Vaccinia virus, UniProt P04312)", "Replicase polyprotein 1a papain-like protease": "Replicase polyprotein 1a, papain-like protease (Severe acute respiratory syndrome coronavirus 2, UniProt P0DTC1)", "bglR": "Beta-glucuronidase (bglR, Clostridium perfringens, UniProt Q8XP19)", "note": "Each line is one published result; not all experiments were run side by side. “And” joins repeats or separate records; there may be more than shown. ± marks the error that the study gave."}
{"Compound": "CNc1ncnc2c1ncn2C1OC(COP(=O)(O)OP(=O)(O)OP(=O)(O)O)C(O)C1O (stereo not drawn)", "target": "OPG122", "IC50": "> 200 µM"}
{"Compound": "N#CC(CC1CCCNC1=O)NC(=O)C(CC1CC1)NC(=O)c1cc2cc(F)cc(F)c2[nH]1 (stereo not drawn)", "target": "Cathepsin B (CTSB, Homo sapiens, UniProt P07858)", "assay": "enzyme activity, inhibitor, fluorescence", "conditions": "pH 5, with preincubation", "IC50": "0.169 µM"}
{"Compound": "CC(C)C[C@@H]1NC(=O)[C@H](CO)NC(=O)[C@H](CCCCN)NC(=O)[C@@H]2CSSC[C@H](N)C(=O)N[C@@H](CC(C)C)C(=O)NCC(=O)N[C@@H](Cc3ccccc3)C(=O)NCC(=O)N[C@@H](CCC(=O)O)C(=O)N[C@@H](CCCCN)C(=O)N[C@H]3CSSC[C@H](NC(=O)[C@H](C(C)C)NC1=O)C(=O)N[C@@H](CCC(N)=O)C(=O)N[C@@H](CCCCN)C(=O)N[C@@H](Cc1c[nH]cn1)C(=O)N[C@@H](CCCCN)C(=O)N[C@@H](Cc1c[nH]c4ccccc14)C(=O)N[C@H](C(=O)N[C@@H](CCCCN)C(=O)N[C@@H](Cc1ccc(O)cc1)C(=O)O)CSSC[C@H](NC(=O)[C@H](CCCCN)NC(=O)[C@H](CC(=O)O)NC(=O)[C@H](CC(N)=O)NC(=O)[C@H](CC(N)=O)NC3=O)C(=O)N2", "target": "SCN9A (Homo sapiens, UniProt Q15858)", "assay": "ion current, inhibitor, patch clamp", "IC50": "39.6 µM"}
{"Compound": "Cc1ccc(N)cc1C(=O)N[C@H](C)c1ccc2c3c(cccc13)CC2", "target": "Replicase polyprotein 1a papain-like protease", "assay": "cell-free assay", "IC50": "2.21 µM"}
{"Compound": "Cc1cc(O)cc(O)c1C(=O)O[C@@H]1CC2=C(COC([C@@H]3O[C@@H]3C)=C2)C(=O)[C@]1(C)O", "target": "Neuraminidase (NA, Influenza A virus, UniProt Q6DPL2)", "test system": "influenza A virus H5N1", "IC50": "164 ± 4.6 µM"}
{"Compound": "Cc1cccc(NC(=O)C[S+]([O-])c2nc(-c3ccccc3)cn2-c2ccc(Cl)cc2)c1C (stereo not drawn)", "target": "Spike glycoprotein, RBD; with ACE2 (Severe acute respiratory syndrome coronavirus 2, UniProt P0DTC2)", "assay": "binding, inhibitor", "IC50": "no inhibition"}
{"Compound": "C(=C\\c1ccc(-c2ccccc2)cc1)/Cn1ccnc1", "target": "cyp121 (Mycobacterium tuberculosis, UniProt P9WPP7)", "assay": "mycocyclosin formation, inhibitor, LC-MS/MS", "conditions": "together with: cYY 20 µM", "IC50": "26 µM"}
{"Compound": "CC(=O)N[C@H]1CC(=O)NCCCC[C@@H](C(N)=O)NC(=O)[C@@H](Cc2ccccc2)NC(=O)[C@@H]2CCCN2C(=O)[C@H](CC(=O)O)NC(=O)[C@H](CC(C)C)NC(=O)[C@H](Cc2ccc(C(=O)O)cc2)NC(=O)[C@H](CCC(=O)O)NC1=O", "target": "Secreted effector protein (Yersinia pestis, UniProt O68720)", "IC50": "> 100 µM"}
{"Compound": "Cc1ccc(N2CC(N3CCC(C)(O)CC3)C2)cc1C(=O)NC1(c2ccc3c4c(cccc24)C(=O)N3C)CC1", "target": "Replicase polyprotein 1a papain-like protease", "assay": "enzyme activity, inhibitor", "IC50": "0.00846 µM"}
{"Compound": "O=C(O)c1ccc(Nc2cc(Nc3ccc(C(=O)O)cc3)c3c(=O)c(Nc4ccc(C(=O)O)cc4)c(-c4ccc(Nc5ccc(C(=O)O)cc5)c(Nc5ccc(C(=O)O)cc5)c4)oc3c2)cc1", "target": "Angiotensin-converting enzyme 2, with SARS-CoV-2 spike (ACE2, Homo sapiens, UniProt Q9BYF1)", "IC50": "14.4 µM"}
{"Compound": "CC[C@H](C)[C@@H]1NC(=O)[C@H](CCCNC(=N)N)NC(=O)[C@H](CO)NC(=O)[C@H](CCC(=O)O)NC(=O)[C@H](CC(=O)O)NC(=O)CNC(=O)CNC(=O)[C@H]([C@@H](C)O)NC(=O)[C@H](Cc2ccccc2)NC(=O)[C@H](CO)NC(=O)[C@H]([C@@H](C)O)NC(=O)[C@H](C)NC(=O)[C@@H]2CSSC[C@@H](C(=O)N[C@@H](Cc3ccc(O)cc3)C(=O)N[C@@H](Cc3ccccc3)C(=O)N[C@H](C(=O)N[C@H](C(=O)NCC(=O)O)[C@@H](C)O)[C@@H](C)O)NC(=O)[C@H]([C@@H](C)O)NC(=O)[C@H](CSSC[C@H](NC(=O)[C@H](CCC(=O)O)NC(=O)[C@H](CO)NC(=O)[C@H](CCCCN)NC(=O)[C@H](Cc3ccc(O)cc3)NC(=O)[C@@H]3CCCN3C(=O)[C@H](Cc3ccccc3)NC(=O)[C@H](CCCCN)NC(=O)[C@H](CCCNC(=N)N)NC(=O)[C@H](CCCCN)NC(=O)[C@H](CCCCN)NC(=O)[C@H](Cc3ccc(O)cc3)NC(=O)[C@@H]3CCCN3C(=O)[C@@H](NC(=O)[C@H](CC(=O)O)NC(=O)[C@H](CCCCN)NC(=O)[C@H](CCCCN)NC(=O)[C@@H](NC(=O)[C@@H](NC(=O)[C@@H](N)CCC(=O)O)C(C)C)[C@@H](C)CC)[C@@H](C)O)C(=O)N[C@@H](CC(C)C)C(=O)N[C@@H](CCCCN)C(=O)N[C@@H](C)C(=O)N2)NC(=O)[C@H](CCCCN)NC(=O)[C@H](Cc2ccccc2)NC(=O)[C@H](Cc2ccccc2)NC(=O)CNC(=O)[C@@H]2CCCN2C(=O)[C@H](CCCCN)NC(=O)CNC(=O)[C@H](CCC(=O)O)NC(=O)[C@H](CCC(N)=O)NC1=O", "target": "KCNQ4 (Homo sapiens, UniProt P56696, D288A)", "assay": "potassium current, whole-cell patch clamp", "test system": "HEK-293T", "IC50": "219 ± 7.6 µM"}
{"Compound": "CN(C)c1nc2sc3c(N4CCNCC4)nnnc3c2c2c1CCCC2", "target": "bglR", "IC50": "0.049 ± 0.002 µM"}
{"Compound": "Nc1nc2c(ncn2C2OC(COP(=O)(O)OP(=O)(O)OP(=O)(O)O)C(O)C2O)c(=O)[nH]1 (stereo not drawn)", "target": "OPG122", "IC50": "22 µM"}
{"Compound": "CC[C@H](C)[C@H](NC(=O)[C@H](Cc1ccc(O)cc1)NC(=O)[C@H](Cc1c[nH]cn1)NC(=O)[C@@H]1CSSC[C@H](NC(=O)[C@@H]2CCCN2C(=O)[C@H](CCCNC(=N)N)NC(=O)[C@H](CC(C)C)NC(=O)[C@H](CC(=O)O)NC(=O)[C@@H]2CCCN2C(=O)[C@H](CCCCN)NC(=O)CNC(=O)CN)C(=O)N[C@@H](Cc2ccc(O)cc2)C(=O)N2CCC[C@H]2C(=O)N2CCC[C@H]2C(=O)N1)C(=O)N1CCC[C@H]1C(=O)N[C@@H](CCCNC(=N)N)C(=O)N1CCC[C@H]1C(=O)N[C@@H](CCCCN)C(=O)N1CCC[C@H]1C(=O)N[C@@H](CCCNC(=N)N)C(=O)O", "target": "Acetylcholine-binding protein (Lymnaea stagnalis, UniProt P58154)", "assay": "binding, inhibitor", "conditions": "together with: α-bungarotoxin", "IC50": "7.3 ± 0.4 µM"}
{"Compound": "CC[C@H](C)[C@@H]1NC(=O)[C@@H]2CSSC[C@H](NC(=O)[C@H](CCCNC(=N)N)NC(=O)[C@@H]3CSSC[C@H](NC1=O)C(=O)N[C@@H]([C@@H](C)O)C(=O)N[C@@H](CCCNC(=N)N)C(=O)NCC(=O)N[C@@H](Cc1ccccc1)C(=O)N3)C(=O)N[C@@H](CC(C)C)C(=O)N[C@H]1CSSC[C@H](NC(=O)[C@H](C(C)C)NC(=O)CNC(=O)[C@H](CCCNC(=N)N)NC(=O)[C@H](CCCNC(=N)N)NC1=O)C(=O)N[C@@H](CCCNC(=N)N)C(=O)N2", "target": "Lethal factor (Bacillus anthracis, UniProt P15917)", "assay": "enzyme activity, inhibitor", "IC50": "0.419 ± 0.032 µM"}
{"Compound": "CC(C)C[C@@H]1NC(=O)[C@H](CCCNC(=N)N)NC(=O)[C@@H]2CCCN2C(=O)[C@@H]2CSSC[C@H](NC(=O)CNC(=O)[C@@H]3CCCN3C(=O)[C@H](CCCCN)NC(=O)[C@H](CC(=O)O)NC(=O)[C@@H](NC(=O)CN)C(C)C)C(=O)N[C@@H](CCCNC(=N)N)C(=O)N[C@@H](Cc3ccc(O)cc3)C(=O)N[C@@H](CC(C)C)C(=O)N[C@@H](Cc3ccccc3)C(=O)NCC(=O)NCC(=O)N[C@H]3CSSC[C@H](NC(=O)CNC1=O)C(=O)N[C@@H](CCCCN)C(=O)NCC(=O)N[C@@H](CCCCN)C(=O)NCC(=O)N[C@@H](Cc1c[nH]cn1)C(=O)N[C@@H](CC(=O)O)C(=O)N[C@@H](Cc1ccc(O)cc1)C(=O)N[C@H](C(=O)N[C@@H](C)C(=O)N[C@@H](Cc1c[nH]c4ccccc14)C(=O)N[C@@H](CC(=O)O)C(=O)NCC(=O)N[C@H](C(=O)N[C@@H](Cc1ccccc1)C(=O)N[C@@H](CO)C(=O)N[C@@H](CC(=O)O)C(=O)O)[C@@H](C)O)CSSC[C@H](NC(=O)[C@H](CC(=O)O)NC(=O)[C@H](CC(=O)O)NC(=O)[C@H](CC(=O)O)NC(=O)[C@H](CO)NC(=O)[C@H](CCCCN)NC3=O)C(=O)N2", "target": "SCN4A (Homo sapiens, UniProt P35499)", "assay": "peak sodium current, inhibitor, automated patch clamp", "test system": "HEK293", "conditions": "holding potential -100 mV, together with: 0.1 % BSA", "IC50": "2.29 µM"}
{"Compound": "C[C@@H]1CN(c2nnnc3c2sc2nc(N4CCOCC4)c4c(c23)CCCC4)CCN1", "target": "bglR", "IC50": "0.9 ± 0.1 µM"}
{"Compound": "C[n+]1cn(C2OC(COP(=O)(O)OP(=O)(O)OP(=O)(O)O)C(O)C2O)c2nc(N)[nH]c(=O)c21 (stereo not drawn)", "target": "OPG122", "IC50": "3 µM"}
{"Compound": "Cc1ccc(NC(=S)NNc2c([N+](=O)[O-])cc(C(F)(F)F)cc2[N+](=O)[O-])cc1Cl", "target": "Transcriptional activator VP30, with NP peptide (VP30, Zaire ebolavirus, UniProt Q05323)", "test system": "Ebola virus", "IC50": "> 20 µM and 29.6 µM"}
{"Compound": "C[n+]1cn(C2OC(COP(=O)(O)OP(=O)(O)O)C(O)C2O)c2nc(N)[nH]c(=O)c21 (stereo not drawn)", "target": "OPG122", "IC50": "21 µM"}
{"Compound": "CCC(C(=O)Nn1cccc1)n1cccc2nc(SCc3ccc(F)cc3)nc1-2 (stereo not drawn)", "target": "Replicase polyprotein 1ab, papain-like protease (rep, Middle East respiratory syndrome-related coronavirus, UniProt K9N7C7)", "assay": "enzyme activity, inhibitor", "IC50": "> 100 µM"}
